Assay results collected from several papers.
Protocols differ between the studies behind these lines. Values joined by “and” are separate records of one study, mostly repeats; a detail may differ. ± marks the error that the study gave.

| Structure (SMILES) | cell line | test | conditions | how to read | quantity | value |
| --- | --- | --- | --- | --- | --- | --- |
| CCN(CCCCOc1ccc(CCC(=O)N2CCC(Cc3ccccc3)CC2)cc1OC)Cc1ccccc1 | Caco-2 monolayer | – | 10 µM, 120 min | – | efflux ratio | 1.67 |
| CNC(=O)C[C@H](Cc1ccccc1)NC(=O)[C@@H](Cc1ccc(Cl)cc1Cl)NC(=O)[C@H](N)Cc1ccccc1C#N | Huh-7-ACE2 | CellTiter-Glo | 0.0488 µM, 48 h, unit not given | relative to: DMSO | viability | 0.968 and 1.11 and 0.992 |
| C[C@H](NC(=O)[C@@H](O)c1cc(F)cc(F)c1)C(=O)N[C@@H]1C(=O)N(C)c2ccccc2-c2ccccc21 | NHDF | cell viability, CellTiter-Glo | 48 h, uninfected | – | CC50 | 1370 µM |
| CC(=O)Oc1ccc(/C=C/C(=O)Oc2ccc(C(F)(F)F)c(C(F)(F)F)c2)cc1OC(C)=O | HaCaT | MTT | 24 h, 10% FBS | – | subcytotoxic concentration | 15 µM |
| CC(=O)c1c(O)c(C)c(O)c2c1OC1=CC(=O)C(=C(C)NNc3ccnc4cc(Cl)ccc34)C(=O)C12C (stereo not drawn) | L6 rat skeletal myoblasts | cytotoxicity, Alamar Blue | – | – | IC50 | 9.75 µM |
| CC[C@H](C)[C@H](N)C(=O)N[C@@H](CCCNC(=N)N)C(=O)N[C@H](C(=O)N[C@@H](Cc1c[nH]c2ccccc12)C(=O)N[C@@H](Cc1ccccc1)C(=O)N[C@H](C(=O)N[C@@H](CCCCN)C(=O)N[C@H](C(=O)N[C@@H](CCCNC(=N)N)C(=O)N[C@@H](CCCCN)C(=O)N[C@@H](CCSC)C(=O)N[C@@H](CCCCN)C(=O)N[C@@H](C)C(=O)N[C@H](C(=O)N[C@@H](Cc1ccc(O)cc1)C(=O)N[C@@H](Cc1c[nH]cn1)C(N)=O)[C@@H](C)CC)C(C)C)[C@@H](C)CC)C(C)C | rat erythrocytes | – | 200 µM, 60 min, 37 °C | – | hemolysis | 33.5 ± 3.2% |
| CC(C)CC(NC(=O)OCc1ccccc1)C(=O)NC(CC1CCNC1=O)C(=O)C(=O)NC1CC1 (stereo not drawn) | MRC5 | – | 5 (unit not given) | – | CC50 | > 250 µM |
| CNC(=O)CC[C@H](Cc1ccccc1)NC(=O)[C@@H](Cc1ccc(Cl)cc1Cl)NC(=O)[C@H](N)Cc1ccccc1[N+](=O)[O-] | Huh-7-ACE2 | CellTiter-Glo | 0.000763 µM, 48 h, unit not given | relative to: DMSO | viability | 0.893 and 0.961 and 0.924 |
| CC[C@H](C)[C@H](NC(=O)[C@H](C)NC(=O)[C@H](CCCCN)NC(=O)[C@H](CCCCN)NC(=O)[C@@H](N)CCCNC(=N)N)C(=O)N[C@@H](CCCCN)C(=O)N[C@@H](CC(C)C)C(=O)N[C@H](C(=O)N[C@@H](CCCCN)C(=O)N[C@@H](CCCCN)C(=O)N[C@@H](CC(C)C)C(=O)N[C@H](C(=O)N[C@@H](CCCCN)C(=O)N[C@@H](CCCCN)C(=O)N[C@@H](CC(C)C)C(=O)N[C@@H](CCCCN)C(=O)N[C@@H](CCCCN)C(=O)N[C@@H](C)C(=O)N[C@@H](CC(C)C)C(=O)N[C@@H](CCCCN)C(=O)O)C(C)C)C(C)C | HaCaT | cell growth or viability, MTT | 8 µg/mL | – | viability | 91.4% |
| COc1cc2c3c(c1OC)-c1ccccc1C[C@H]3N(C)CC2 | hACE2-A549 cells | – | 96 h | – | CC50 | 44 ± 3.25 µM |
| FC(F)(F)c1cc2nc(c1)CNCc1cc(C(F)(F)F)cc(n1)CNC2 | Friedreich's ataxia fibroblasts | MTT | – | – | LD50 | 0.657 mM |
| CC[C@@H](C)[C@@H](NC(=O)[C@@H](Cc1c[nH]c2ccccc12)NC(=O)[C@@H](CCCCN)NC(=O)[C@@H](CC(C)C)NC(=O)[C@H](NC(=O)[C@H](NC(=O)CNC(=O)[C@@H](CCCCN)NC(=O)[C@@H](Cc1c[nH]cn1)NC(=O)[C@@H](CCCCN)NC(=O)[C@@H](Cc1c[nH]c2ccccc12)NC(=O)[C@@H](C)NC(=O)[C@@H](CC(C)C)NC(=O)[C@@H](CO)NC(=O)[C@H](NC(=O)[C@@H](Cc1ccc(O)cc1)NC(=O)[C@@H](CCCCN)NC(=O)[C@@H](CCC(N)=O)NC(=O)CNC(=O)[C@@H](CCCCN)NC(=O)[C@H](NC(=O)[C@@H](C)NC(=O)[C@@H](CC(C)C)NC(=O)[C@@H](Cc1ccccc1)NC(=O)[C@@H](CCC(N)=O)NC(=O)[C@H](NC(=O)[C@@H](CC(C)C)NC(=O)[C@@H](CCCCN)NC(=O)[C@@H](CCSC)NC(=O)[C@@H](Cc1ccccc1)NC(=O)[C@@H](C)NC(=O)[C@@H](C)NC(=O)[C@@H](CCSC)NC=O)[C@H](C)CC)[C@H](C)O)C(C)C)[C@H](C)O)[C@H](C)CC)C(=O)N[C@H](CC(N)=O)C(=O)N[C@H](C)C(=O)NCC(=O)N[C@H](CCC(N)=O)C(=O)N[C@H](CO)C(=O)N[C@H](Cc1ccccc1)C(=O)N[C@H](CCC(=O)O)C(=O)N[C@H](Cc1c[nH]c2ccccc12)C(=O)N[C@@H](C(=O)N[C@H](Cc1ccc(O)cc1)C(=O)N[C@H](CCCCN)C(=O)N[C@H](CCC(N)=O)C(=O)N[C@@H](C(=O)N[C@H](CCCCN)C(=O)N[C@H](CCCCN)C(=O)N[C@H](CC(C)C)C(=O)N[C@H](Cc1c[nH]c2ccccc12)C(=O)N[C@H](C)C(=O)O)[C@H](C)CC)[C@H](C)CC | human erythrocytes | hemolysis | pH 7.2 | relative to: water complete hemolysis | HD50 | 600 µg/mL |
| O=c1n(CCNCCOS(=O)(=O)c2ccccc2)c(=O)n(S(=O)(=O)c2ccccc2)c(=O)n1S(=O)(=O)c1ccccc1 | HUVEC | cell growth or viability, MTT | 48 h | – | IC50 | 5.38 µg/mL |
| CNC(=O)C[C@H](Cc1ccncc1)NC(=O)[C@@H](Cc1cccc(Br)c1)NC(=O)[C@@H](N)Cc1ccsc1 | Huh-7-ACE2 | CellTiter-Glo | 3.125 µM, 48 h, unit not given | relative to: DMSO | viability | 0.994 and 1.02 and 0.927 |
| CC[C@H](C)[C@H](NC(=O)[C@@H](NC(=O)[C@H](CCCCN)NC(=O)[C@H](CCC(N)=O)NC(=O)[C@@H](NC(=O)[C@H](Cc1c[nH]c2ccccc12)NC(=O)[C@H](CCCCN)NC(=O)[C@H](CCCCN)NC(=O)[C@H](CC(C)C)NC(=O)[C@H](CCCNC(=N)N)NC(=O)[C@H](CCCCN)NC(=O)[C@@H](N)C(C)C)[C@@H](C)CC)C(C)C)C(N)=O | sheep red blood cells | 10% haemolysis | 1 h, 37 °C | – | minimum haemolytic concentration | > 256 µM |
| CC[C@H](C)[C@H](NC(=O)[C@H](CCCNC(=N)N)NC(=O)CNC(=O)[C@H](CCCCN)NC(=O)[C@@H](NC(=O)CNC(=O)[C@H](Cc1c[nH]cn1)NC(=O)[C@@H](NC(=O)[C@H](CC(C)C)NC(=O)[C@H](CO)NC(=O)CNC(=O)[C@H](CC(C)C)NC(=O)CN)C(C)C)C(C)C)C(=O)N[C@@H](Cc1ccccc1)C(=O)N[C@@H](CC(N)=O)C(=O)N[C@@H](Cc1c[nH]cn1)C(=O)N[C@@H](CCCCN)C(=O)N[C@@H](CC(C)C)C(=O)NCC(=O)N[C@@H](CCSC)C(=O)N[C@@H](C)C(=O)N[C@@H](CO)C(=O)N[C@H](C(=O)N[C@H](C(=O)N[C@@H](CCCCN)C(=O)NCC(=O)N[C@H](C(=O)N[C@@H](CC(C)C)C(=O)N[C@@H](CCC(N)=O)C(=O)N[C@@H](CCCCN)C(=O)N[C@@H](CC(C)C)C(=O)N[C@@H](Cc1c[nH]c2ccccc12)C(=O)N[C@@H](CCC(=O)O)C(=O)O)C(C)C)[C@@H](C)CC)C(C)C | HaCaT | cytotoxicity, MTT | 24 h, 37 °C | – | IC50 | 47.2 µM |
| COC(=O)c1cc2c(=O)n3ccccc3nc2n1Cc1ccccc1 | Vero | MTT | 1.6 µM, 24 (unit not given) | – | viability | 78.9% |
| CC[C@H](C)[C@@H]1NC(=O)[C@H](C(C)C)NC(=O)[C@H](C(C)C)NC(=O)[C@H](CC(C)C)NC(=O)C[C@@H](C(=O)N[C@@H](Cc2c[nH]c3ccccc23)C(=O)N[C@@H](CC(N)=O)C(=O)N[C@@H](C)C(=O)N2CCC[C@H]2C(=O)NCC(=O)N[C@@H](Cc2c[nH]c3ccccc23)C(=O)N[C@@H](Cc2ccccc2)C(=O)O)NC(=O)[C@H](C)NC(=O)[C@H](CCC(N)=O)NC(=O)[C@H](C(C)C)NC1=O | SMMC-7721 | – | 10 µM | – | cytotoxicity | not toxic |
| CC[C@H](C)[C@H](NC(=O)[C@@H](NC(=O)[C@H](CCCNC(=N)N)NC(=O)[C@H](CCCNC(=N)N)NC(=O)[C@@H](NC(=O)[C@H](Cc1c[nH]c2ccccc12)NC(=O)[C@H](CCCNC(=N)N)NC(=O)[C@H](Cc1c[nH]c2ccccc12)NC(=O)[C@H](CC(C)C)NC(=O)[C@H](CCCNC(=N)N)NC(=O)[C@H](CCCNC(=N)N)NC(=O)[C@@H](N)C(C)C)[C@@H](C)CC)C(C)C)C(N)=O | sheep red blood cells | 10% haemolysis | 1 h, 37 °C | – | minimum haemolytic concentration | 40 µM |
| COc1cc(/C=C/C(=O)Oc2cc(C(F)(F)F)cc(C(F)(F)F)c2)ccc1O | HaCaT | cell growth or viability, MTT | 24 h | – | CC50 | 25.1 µM |
| CC[C@H](C)[C@H](NC(=O)[C@H](C)NC(=O)[C@H](CCCCN)NC(=O)[C@H](CC(C)C)NC(=O)[C@@H](N)Cc1ccccc1)C(=O)N[C@@H](CCCCN)C(=O)N[C@@H](CCCCN)C(=O)N[C@@H](Cc1ccccc1)C(=O)NCC(=O)N[C@@H](CCCCN)C(=O)N[C@@H](CCC(=O)O)C(=O)N[C@@H](Cc1ccccc1)C(=O)N[C@@H](CCCCN)C(=O)N[C@@H](CCCCN)C(=O)N[C@H](C(=O)NCC(=O)N[C@@H](C)C(=O)N[C@@H](CCCCN)C(=O)N[C@@H](CC(C)C)C(=O)N[C@@H](CCCCN)C(=O)O)[C@@H](C)CC | HeLa | MTT | 8 mg/L | relative to: untreated | cell growth | 98.3% and 92.9% and 92.8% |
